{"data": "Assay results pooled from the literature", "note": "A part holds a random share of what one study measured. Values joined by “and” are separate records of one study, mostly repeats; a detail may differ.", "chain of UniProt P50406 (whole entry, looked up)": "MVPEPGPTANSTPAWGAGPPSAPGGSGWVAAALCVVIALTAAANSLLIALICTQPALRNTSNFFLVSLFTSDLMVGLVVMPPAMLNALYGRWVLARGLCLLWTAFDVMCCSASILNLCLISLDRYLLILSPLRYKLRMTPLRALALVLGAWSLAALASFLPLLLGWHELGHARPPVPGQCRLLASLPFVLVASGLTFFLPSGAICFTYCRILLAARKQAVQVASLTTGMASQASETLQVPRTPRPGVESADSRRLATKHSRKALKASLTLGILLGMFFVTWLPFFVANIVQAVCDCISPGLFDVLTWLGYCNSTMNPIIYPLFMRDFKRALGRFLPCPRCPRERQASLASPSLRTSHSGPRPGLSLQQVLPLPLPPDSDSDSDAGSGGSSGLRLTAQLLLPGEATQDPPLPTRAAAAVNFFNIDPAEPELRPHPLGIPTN", "chain of UniProt P25100 (whole entry, looked up)": "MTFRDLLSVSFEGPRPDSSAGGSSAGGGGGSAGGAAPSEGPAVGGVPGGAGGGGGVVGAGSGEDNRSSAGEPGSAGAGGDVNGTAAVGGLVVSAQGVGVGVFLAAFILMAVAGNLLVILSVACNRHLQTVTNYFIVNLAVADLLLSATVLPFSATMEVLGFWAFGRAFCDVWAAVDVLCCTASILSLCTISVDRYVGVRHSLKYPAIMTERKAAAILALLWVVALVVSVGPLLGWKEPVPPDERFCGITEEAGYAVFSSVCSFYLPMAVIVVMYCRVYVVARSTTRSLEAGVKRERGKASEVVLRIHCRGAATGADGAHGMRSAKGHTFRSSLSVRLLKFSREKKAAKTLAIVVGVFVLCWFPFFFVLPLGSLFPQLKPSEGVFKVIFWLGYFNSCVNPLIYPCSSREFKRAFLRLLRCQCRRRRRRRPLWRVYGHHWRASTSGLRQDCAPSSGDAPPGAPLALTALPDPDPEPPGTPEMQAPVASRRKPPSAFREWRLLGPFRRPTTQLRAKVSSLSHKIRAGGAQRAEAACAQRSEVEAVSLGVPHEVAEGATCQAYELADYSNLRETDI", "chain of UniProt P34969 (whole entry, looked up)": "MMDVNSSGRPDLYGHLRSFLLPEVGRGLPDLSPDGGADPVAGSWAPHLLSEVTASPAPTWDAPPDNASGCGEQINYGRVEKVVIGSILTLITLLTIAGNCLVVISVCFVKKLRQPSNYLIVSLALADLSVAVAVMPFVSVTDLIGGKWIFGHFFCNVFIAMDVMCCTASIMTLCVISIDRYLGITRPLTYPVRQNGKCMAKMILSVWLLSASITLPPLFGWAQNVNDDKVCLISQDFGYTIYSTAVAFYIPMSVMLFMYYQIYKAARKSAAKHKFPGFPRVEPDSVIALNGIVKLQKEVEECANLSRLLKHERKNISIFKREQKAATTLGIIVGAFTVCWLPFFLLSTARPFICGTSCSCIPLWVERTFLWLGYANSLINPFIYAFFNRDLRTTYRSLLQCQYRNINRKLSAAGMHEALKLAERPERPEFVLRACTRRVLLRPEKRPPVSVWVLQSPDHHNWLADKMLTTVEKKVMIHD", "chain of UniProt P35368 (whole entry, looked up)": "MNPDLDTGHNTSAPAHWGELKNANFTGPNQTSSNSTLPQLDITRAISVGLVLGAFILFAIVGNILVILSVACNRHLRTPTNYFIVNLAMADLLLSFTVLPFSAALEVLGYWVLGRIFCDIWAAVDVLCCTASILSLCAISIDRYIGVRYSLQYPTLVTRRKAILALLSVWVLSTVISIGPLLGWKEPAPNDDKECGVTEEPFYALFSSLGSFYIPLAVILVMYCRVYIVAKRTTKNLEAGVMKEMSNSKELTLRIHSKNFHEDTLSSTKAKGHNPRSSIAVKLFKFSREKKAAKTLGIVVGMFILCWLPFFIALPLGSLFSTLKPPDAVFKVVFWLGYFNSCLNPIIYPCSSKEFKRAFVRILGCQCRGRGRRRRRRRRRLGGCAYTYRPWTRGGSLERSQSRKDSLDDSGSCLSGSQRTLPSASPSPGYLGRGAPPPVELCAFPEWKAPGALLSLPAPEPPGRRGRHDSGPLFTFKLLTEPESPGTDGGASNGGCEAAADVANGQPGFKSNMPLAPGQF", "chain of UniProt P18825 (whole entry, looked up)": "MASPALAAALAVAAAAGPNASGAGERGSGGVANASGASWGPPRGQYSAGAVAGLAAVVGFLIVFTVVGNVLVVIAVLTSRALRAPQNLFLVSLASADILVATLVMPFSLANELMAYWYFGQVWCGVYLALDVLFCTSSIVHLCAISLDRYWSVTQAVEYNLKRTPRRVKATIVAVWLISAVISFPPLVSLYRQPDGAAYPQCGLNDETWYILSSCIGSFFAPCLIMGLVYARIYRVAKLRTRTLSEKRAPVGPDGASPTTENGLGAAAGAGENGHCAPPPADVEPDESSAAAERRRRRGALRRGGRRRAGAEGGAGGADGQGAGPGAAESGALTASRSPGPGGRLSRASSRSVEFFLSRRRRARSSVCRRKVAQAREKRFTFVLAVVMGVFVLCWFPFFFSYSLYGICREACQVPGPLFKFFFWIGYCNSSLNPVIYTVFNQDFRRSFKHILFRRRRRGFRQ", "chain of UniProt P21917 (whole entry, looked up)": "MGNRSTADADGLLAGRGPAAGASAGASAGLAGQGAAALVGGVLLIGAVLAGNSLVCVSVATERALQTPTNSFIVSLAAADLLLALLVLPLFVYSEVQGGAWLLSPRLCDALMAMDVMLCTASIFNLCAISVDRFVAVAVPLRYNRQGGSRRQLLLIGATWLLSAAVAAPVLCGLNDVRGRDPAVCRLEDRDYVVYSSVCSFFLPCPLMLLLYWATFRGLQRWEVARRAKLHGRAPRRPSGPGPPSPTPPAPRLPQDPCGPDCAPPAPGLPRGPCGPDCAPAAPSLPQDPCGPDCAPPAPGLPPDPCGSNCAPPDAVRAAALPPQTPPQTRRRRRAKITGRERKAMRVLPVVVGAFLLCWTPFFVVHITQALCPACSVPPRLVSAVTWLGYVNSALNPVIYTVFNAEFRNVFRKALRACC", "chain of UniProt Q5BJF2 (whole entry, looked up)": "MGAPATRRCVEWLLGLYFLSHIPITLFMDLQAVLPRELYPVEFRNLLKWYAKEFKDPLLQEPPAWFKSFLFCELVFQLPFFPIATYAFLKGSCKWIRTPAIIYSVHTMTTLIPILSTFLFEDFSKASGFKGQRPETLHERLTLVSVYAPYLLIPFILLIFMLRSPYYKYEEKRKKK", "chain of UniProt P46098 (whole entry, looked up)": "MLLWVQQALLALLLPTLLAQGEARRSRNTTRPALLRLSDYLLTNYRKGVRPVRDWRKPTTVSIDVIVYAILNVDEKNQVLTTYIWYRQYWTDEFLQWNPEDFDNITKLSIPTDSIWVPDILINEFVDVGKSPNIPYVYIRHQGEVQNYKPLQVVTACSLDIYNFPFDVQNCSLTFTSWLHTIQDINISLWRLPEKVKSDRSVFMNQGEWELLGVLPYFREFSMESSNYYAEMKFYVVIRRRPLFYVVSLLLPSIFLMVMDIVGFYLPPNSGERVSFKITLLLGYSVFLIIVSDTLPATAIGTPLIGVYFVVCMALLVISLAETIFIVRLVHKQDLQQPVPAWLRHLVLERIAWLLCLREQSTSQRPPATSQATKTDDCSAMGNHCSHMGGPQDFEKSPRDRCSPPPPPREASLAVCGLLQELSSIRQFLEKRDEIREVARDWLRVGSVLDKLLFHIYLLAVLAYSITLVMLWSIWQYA", "chain of UniProt Q9H3N8 (whole entry, looked up)": "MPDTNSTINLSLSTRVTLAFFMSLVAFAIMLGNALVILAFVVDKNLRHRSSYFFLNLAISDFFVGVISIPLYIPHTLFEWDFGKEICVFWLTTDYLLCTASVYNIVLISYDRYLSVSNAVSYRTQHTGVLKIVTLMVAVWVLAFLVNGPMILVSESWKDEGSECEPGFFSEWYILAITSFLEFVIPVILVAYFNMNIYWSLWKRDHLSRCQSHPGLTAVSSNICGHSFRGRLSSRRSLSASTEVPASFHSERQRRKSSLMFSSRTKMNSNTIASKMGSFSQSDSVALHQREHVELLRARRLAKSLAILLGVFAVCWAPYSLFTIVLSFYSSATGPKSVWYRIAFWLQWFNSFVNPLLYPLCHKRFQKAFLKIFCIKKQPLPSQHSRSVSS"}
{"data": "Study 1", "cell line": "mouse MPNST tumor cells", "technique": "high-content immunofluorescence imaging", "refers to": "nuclear SOX9", "tested at": "10 µM", "time": "12 h", "notes": "mean of 2 replicates", "reference": "DMSO control", "direction": "higher = more nuclear SOX9"}
{"SMILES": "Cn1nnc2c(C(N)=O)ncn2c1=O", "nuclear SOX9 intensity": "105 % of DMSO and 82.8 % of DMSO and 101 % of DMSO"}
{"SMILES": "N#Cc1c(-c2ccccc2)cc(-c2cc(Br)ccc2O)[nH]c1=O", "nuclear SOX9 intensity": "101 % of DMSO"}
{"SMILES": "O=C(NCc1ccco1)c1ccc2c(c1)N(Cc1c(F)cccc1Cl)C(=O)CS2", "nuclear SOX9 intensity": "88.5 % of DMSO"}
{"SMILES": "CC1(C)SCN(S(=O)(=O)c2ccccc2)C1C(=O)NC(CNC(=O)NCc1ccccc1)C(=O)O (centres unmarked)", "nuclear SOX9 intensity": "100 % of DMSO"}
{"SMILES": "Cn1ccc2cc(NC(=O)Nc3cccnc3)ccc21", "nuclear SOX9 intensity": "98.6 % of DMSO"}
{"SMILES": "N#Cc1cc(NC(=O)C(=O)O)c(Cl)c(NC(=O)C(=O)O)c1", "nuclear SOX9 intensity": "89.5 % of DMSO"}
{"SMILES": "CCC(=O)OCC(=O)[C@@]1(OC(=O)CC)[C@H](C)C[C@H]2[C@H]3[C@H]([C@@H](O)C[C@@]21C)[C@@]1(C)C=CC(=O)C=C1C[C@H]3Cl", "nuclear SOX9 intensity": "67.4 % of DMSO"}
{"SMILES": "CC1(C)C(=O)C(C)(C)c2cc(C(=O)Nc3ccc(C(=O)O)cc3)ccc21", "nuclear SOX9 intensity": "122 % of DMSO"}
{"SMILES": "CC1CS(=O)(=O)CCN1/N=C/c1ccc([N+](=O)[O-])o1 (centres unmarked)", "nuclear SOX9 intensity": "98.9 % of DMSO"}
{"data": "Study 2", "Structure (SMILES)": "Cc1cc2c(-c3ccco3)cnc(N[C@H]3CCN(C)C[C@@H]3C(=O)NC3CCCCC3)c2[nH]c1=O", "tested at": "10 µM"}
{"target": "Alpha-2C adrenergic receptor (ADRA2C, Homo sapiens, UniProt P18825)", "assay": "ligand displacement", "inhibition [%]": 10.8}
{"target": "D(4) dopamine receptor (DRD4, Homo sapiens, UniProt P21917)", "assay": "ligand displacement", "inhibition [%]": 17.4}
{"target": "5-hydroxytryptamine receptor 3A (HTR3A, Homo sapiens, UniProt P46098)", "assay": "cell-free assay", "inhibition [%]": 1.04}
{"target": "5-hydroxytryptamine receptor 7 (HTR7, Homo sapiens, UniProt P34969)", "assay": "ligand displacement", "inhibition [%]": -22}
{"target": "Alpha-1D adrenergic receptor (ADRA1D, Homo sapiens, UniProt P25100)", "assay": "ligand displacement", "inhibition [%]": 7.87}
{"target": "5-hydroxytryptamine receptor 6 (HTR6, Homo sapiens, UniProt P50406)", "assay": "ligand displacement", "inhibition [%]": -15.6}
{"target": "Sigma intracellular receptor 2 (TMEM97, Homo sapiens, UniProt Q5BJF2)", "assay": "ligand displacement", "inhibition [%]": 44.1}
{"target": "Alpha-1B adrenergic receptor (ADRA1B, Homo sapiens, UniProt P35368)", "assay": "ligand displacement", "inhibition [%]": 1.98}
{"target": "Histamine H4 receptor (HRH4, Homo sapiens, UniProt Q9H3N8)", "assay": "ligand displacement", "inhibition [%]": -23.9}
{"data": "Study 3", "organism": "Sarcocystis neurona", "effect on": "parasite growth", "tested at": "concentration not given", "notes": "secondary screen"}
{"Compound": "Nc1nc(Cl)nc2c1ncn2[C@@H]1O[C@H](CO)[C@@H](O)[C@H]1O", "inhibition": "-24.8%"}
{"Compound": "CC(CN1c2ccccc2Sc2ccccc21)N(C)C.Cl (centres unmarked)", "inhibition": "-42.6%"}
{"Compound": "COc1nc(C)nc(Cl)c1NC1=NCCN1.Cl", "inhibition": "-39%"}
{"Compound": "CN1CCN(c2nc3cc(C(F)(F)F)ccc3n3cccc23)CC1", "inhibition": "-3.6%"}
{"Compound": "CN(CCOc1ccc(CC2SC(=O)NC2=O)cc1)c1ccccn1.Cl (centres unmarked)", "inhibition": "0.24%"}
{"Compound": "CN(C)CCC=C1c2ccccc2CCc2ccccc21.Cl", "inhibition": "-13.1%"}
{"Compound": "COc1cc(OC)c(C(=O)CCCN2CCCC2)c(OC)c1.Cl", "inhibition": "-42.9%"}
{"Compound": "CC(N/C(=N\\C#N)Nc1ccncc1)C(C)(C)C.O (centres unmarked)", "inhibition": "-11.2%"}
{"Compound": "Nc1nc(=O)[nH]cc1F", "inhibition": "-1.5%"}
{"Compound": "CN1[C@@H]2CC[C@H]1C[C@@H](OC(c1ccccc1)c1ccccc1)C2.CS(=O)(=O)O", "inhibition": "-22.8%"}
{"data": "Study 4", "target": "Protein kinase C epsilon type (PRKCE, Homo sapiens, UniProt Q02156)", "effect on": "enzyme activity", "mode": "inhibitor", "tested at": "0.5 µM", "reference": "control", "chain of UniProt Q02156 (whole entry, looked up)": "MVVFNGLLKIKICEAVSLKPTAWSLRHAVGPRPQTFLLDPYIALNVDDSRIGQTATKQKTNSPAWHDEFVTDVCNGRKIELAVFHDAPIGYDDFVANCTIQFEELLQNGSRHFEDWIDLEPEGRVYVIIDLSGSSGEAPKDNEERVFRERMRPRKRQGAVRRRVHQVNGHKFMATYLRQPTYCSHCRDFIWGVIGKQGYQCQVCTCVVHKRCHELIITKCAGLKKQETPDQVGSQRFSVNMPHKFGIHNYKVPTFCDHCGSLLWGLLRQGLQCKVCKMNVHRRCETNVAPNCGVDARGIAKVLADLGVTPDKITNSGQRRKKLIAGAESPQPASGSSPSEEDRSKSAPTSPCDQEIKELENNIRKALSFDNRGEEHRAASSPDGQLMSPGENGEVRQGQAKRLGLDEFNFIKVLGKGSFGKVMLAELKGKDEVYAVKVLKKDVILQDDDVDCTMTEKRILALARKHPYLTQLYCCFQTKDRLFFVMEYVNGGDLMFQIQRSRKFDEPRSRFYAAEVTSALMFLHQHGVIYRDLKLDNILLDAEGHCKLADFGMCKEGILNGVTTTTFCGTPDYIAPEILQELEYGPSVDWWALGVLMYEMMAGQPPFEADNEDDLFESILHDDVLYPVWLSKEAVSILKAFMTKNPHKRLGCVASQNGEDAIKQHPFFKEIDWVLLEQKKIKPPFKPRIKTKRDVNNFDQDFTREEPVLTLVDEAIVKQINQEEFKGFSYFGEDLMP"}
{"Structure (SMILES)": "CC#CC(=O)Nc1cc2c(Nc3ccc(F)c(Cl)c3)ncnc2cn1", "remaining activity [%]": 88.3}
{"Structure (SMILES)": "CC[n+]1c(/C=C/N(C)c2ccccc2)n(-c2ccccc2)c2ccc(-c3nc4ccccc4s3)cc21", "remaining activity [%]": 97.7}
{"Structure (SMILES)": "N#CC(=C(N)Sc1ccc(N)cc1)c1ccccc1C(F)(F)F", "remaining activity [%]": 104}
{"Structure (SMILES)": "Nc1ncnc2c1cnn2-c1ccccc1", "remaining activity [%]": 98.3}
{"Structure (SMILES)": "CC(C)(C)n1nc(Cc2cccc3ccccc23)c2c(N)ncnc21", "remaining activity [%]": 101}
{"Structure (SMILES)": "Nc1nccc(-c2c(-c3ccc(F)cc3)ncn2C2CCNCC2)n1", "remaining activity [%]": 105}
{"Structure (SMILES)": "Fc1ccc(-c2nc3n(c2-c2ccncc2)CCS3)cc1", "remaining activity [%]": 97.7}
{"Structure (SMILES)": "Cc1ccc(NC2=CC(=O)c3sc(C)nc3C2=O)cc1", "remaining activity [%]": 96.3}
{"Structure (SMILES)": "Cc1cncc2cccc(S(=O)(=O)N3CCCN(C(=O)CN)C[C@@H]3C)c12", "remaining activity [%]": 52.4}
{"Structure (SMILES)": "Oc1ccc(Nc2nc(-c3ccc(Cl)cc3)cs2)cc1", "remaining activity [%]": 99.6}
{"Structure (SMILES)": "COc1cc(Nc2c(C#N)cnc3cc(OCCCN4CCN(C)CC4)c(OC)cc23)c(Cl)cc1Cl", "remaining activity [%]": 78}
{"Structure (SMILES)": "CC(=O)c1ccc(N2CCOCC2)cc1O", "remaining activity [%]": 93.4}
{"Structure (SMILES)": "COc1ccc(S(=O)(=O)N(CCO)c2ccccc2CN(C)CC=Cc2ccc(Cl)cc2)cc1", "remaining activity [%]": 97.2}
{"Structure (SMILES)": "CCCC(=O)Oc1ccc2[nH]c(C(=O)c3cc4ccccc4[nH]3)cc2c1", "remaining activity [%]": 91}
{"Structure (SMILES)": "NC(=O)c1ccc(N(C(N)=O)c2c(F)cccc2F)nc1-c1ccc(F)cc1F", "remaining activity [%]": 101}
{"Structure (SMILES)": "CCc1[nH]c(-c2ccc(OC)cc2)nc1-c1ccncc1", "remaining activity [%]": 101}
{"Structure (SMILES)": "O=C1Cc2c([nH]c3ccc([N+](=O)[O-])cc23)-c2ccccc2N1", "remaining activity [%]": 111}
{"Structure (SMILES)": "Cc1cc(Nc2nc(-c3ccccc3)nc3ccccc23)n[nH]1", "remaining activity [%]": 87.1}
{"Structure (SMILES)": "CSc1nc(-c2ccnc(N[C@@H](C)c3ccccc3)c2)c(-c2ccc(F)cc2)[nH]1 (racemic)", "remaining activity [%]": 87.6}
{"Structure (SMILES)": "O=S(=O)(NCCNC/C=C/c1ccc(Br)cc1)c1cccc2cnccc12", "remaining activity [%]": 86.4}
{"Structure (SMILES)": "O=C1NC(=O)C(c2c[nH]c3ccccc23)=C1c1c[nH]c2ccccc12", "remaining activity [%]": 24}
{"data": "Mixed results"}
{"Compound": "CC(C)n1cnc(-c2ccc(F)cc2)c1-c1ncc(C(=O)Nc2ccc(N3CCN(C)CC3)cc2)[nH]1", "test system": "human, idiopathic pulmonary fibrosis", "setting": "60 mg once daily, trial, treatment-emergent", "measurement": "patients with Hypothyroidism", "result": "0%"}
{"note": "Excerpt of the above (study 1):"}
{"SMILES": "N#Cc1cc(NC(=O)C(=O)O)c(Cl)c(NC(=O)C(=O)O)c1", "nuclear SOX9 intensity": "89.5 % of DMSO"}
{"SMILES": "CC1(C)C(=O)C(C)(C)c2cc(C(=O)Nc3ccc(C(=O)O)cc3)ccc21", "nuclear SOX9 intensity": "122 % of DMSO"}
{"SMILES": "N#Cc1c(-c2ccccc2)cc(-c2cc(Br)ccc2O)[nH]c1=O", "nuclear SOX9 intensity": "101 % of DMSO"}
{"SMILES": "CC1CS(=O)(=O)CCN1/N=C/c1ccc([N+](=O)[O-])o1 (centres unmarked)", "nuclear SOX9 intensity": "98.9 % of DMSO"}
{"SMILES": "O=C(NCc1ccco1)c1ccc2c(c1)N(Cc1c(F)cccc1Cl)C(=O)CS2", "nuclear SOX9 intensity": "88.5 % of DMSO"}
